Assay results pooled from the literature.
Parts stem from different laboratories: compare values within a part only. Changes are numbered by the printed parent chain.

Study 1 — technique: protein-binding microarray; molecule type: double-stranded DNA, one strand shown; medium: in vitro; tested at: not given; direction: higher = stronger binding; endpoint: E-score
Target: Max dimerization protein 1, bHLH-zipper, MAX partner unstated (MXD1, Homo sapiens, UniProt Q05195, residues 56-136)
Notes: k-mer, scored over probes, only values ≥0.25
Target sequence (chain): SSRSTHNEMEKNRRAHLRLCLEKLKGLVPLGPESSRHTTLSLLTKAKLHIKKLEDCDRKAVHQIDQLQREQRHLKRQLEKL
CATGTCCC: 0.314
CTCGTGAA: 0.268
CGCACACG: 0.386
GGGGAGCA: 0.295
CGAGACGC: 0.255
CACGTTAG: 0.256
AATGTGCT: 0.266
ATGAGGAC: 0.271
CTCCACGC: 0.342
AGCACGAG: 0.367
CCATGCGA: 0.307
CGGCCCCC: 0.289
CGTGGGAC: 0.344
CATGTGTC: 0.45
CACGCAAA: 0.264
CACCCGCC: 0.274
TCGTGGCA: 0.273
CCCGCACG: 0.33
AACTCATG: 0.353
ACCGCCCC: 0.27

Study 2 — target: JUN, bZIP domain (human); technique: DHFR protein complementation; medium: yeast; relative to: wild-type JUN-FOS pair; direction: higher = stronger binding; endpoint: binding fitness
Notes: single substitutions, most at no-binding floor
Starting sequence: JUN, bZIP domain (human); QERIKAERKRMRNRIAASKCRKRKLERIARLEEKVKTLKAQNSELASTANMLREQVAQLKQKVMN; partner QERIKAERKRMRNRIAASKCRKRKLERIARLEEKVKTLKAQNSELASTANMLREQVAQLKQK
T37D: -0.149 natural log
A29I: -0.271 natural log
V56W: -0.813 natural log
A46R: -0.178 natural log
A49K: -0.972 natural log
V35W: -1.01 natural log
A57I: -0.451 natural log
A29R: -0.139 natural log
N42Q: -0.292 natural log
L45A: -1.13 natural log
R53K: -0.428 natural log
E32A: -0.334 natural log
S47M: -0.205 natural log
E32I: -0.567 natural log
R53M: -0.662 natural log
K34A: -0.0906 natural log
M51S: -0.197 natural log
R30M: -0.167 natural log
E33R: -0.314 natural log
R53I: -0.98 natural log
R53Y: -0.864 natural log
Q55I: -0.503 natural log
L31V: -1.19 natural log
A40T: -0.166 natural log
T48E: -0.168 natural log

Study 3 — technique: competition protein-binding microarray; molecule type: double-stranded DNA, one strand shown; medium: in vitro; tested at: 2 µM; added: Cbf1 competitor, 0.05 µM; direction: higher = stronger binding; endpoint: fluorescence intensity; constant ends, left off below: … GTCTTGATTCGCTTGACGCTGCTG
Target: Phosphate system positive regulatory protein PHO4, full length, GST-tagged (PHO4, Saccharomyces cerevisiae, UniProt P07270, residues 1-312)
Notes: whole 60-bp probe, lowest competitor level
Residues (chain): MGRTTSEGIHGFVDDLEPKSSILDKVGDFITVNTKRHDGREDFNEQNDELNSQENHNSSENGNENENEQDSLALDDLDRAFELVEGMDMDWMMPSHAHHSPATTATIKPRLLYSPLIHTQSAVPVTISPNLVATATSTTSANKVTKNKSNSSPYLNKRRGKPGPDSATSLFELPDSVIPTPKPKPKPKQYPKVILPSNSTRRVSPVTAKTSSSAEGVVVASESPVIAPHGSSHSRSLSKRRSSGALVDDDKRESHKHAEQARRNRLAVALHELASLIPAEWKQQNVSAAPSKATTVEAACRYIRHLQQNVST
CATACCCAACCTTTTCACGTGATCTAAGATATTTGT: 13500 a.u.
CATACCCAACCTTGCAGCGTGGGTGAAGATATTTGT: 8460 a.u.
CTGATGCCCATGGAGACTGTGACGCTAAGAGGAATT: 3760 a.u.
TGCGCAACAACTTGTCACTTCACTTTATGTCTAGAA: 3310 a.u.
CTTCTGTAAATTTTTCACGTGCCATGACGCGCCCCG: 17100 a.u.
CTAACGAAGGTTTGTTGCGTGGGTGACAAGCCAAGT: 6340 a.u.
ATTGTATGAAGATAACGCGTGGTGAATTGGAAATAG: 11800 a.u.
CCGGGACATTATAACAACGTGCAAATGGCGATGATT: 13600 a.u.
GGCTAAAACGAAGCCATCGTGCAAAATGGTAAGTTC: 9420 a.u.
GGGGTTAAGGTCTGGCACGATGGTAAGACGATGAGG: 12100 a.u.
CAGGAGAACTTGCATCATGTGGTGTTCTTCCGAGAT: 8940 a.u.
CATTGAAAAGCAAGTGACGTGACTCGAACTTGAAAG: 3980 a.u.
TTGAACGGTGGTACCCACGCTGGTGGTGCTTTGGCT: 7820 a.u.
CATACCCAACCTTGGTATGTGGGTGAAGATATTTGT: 5010 a.u.
CGACGAAGTACTGGACACGTTCCCTTCAAACATCAA: 13600 a.u.
CGTCCTAGTGATTGTCACGGAACTTCCATGAGGAAG: 4620 a.u.
CATACCCAACCTTGTCACGTGTTTTAAGATATTTGT: 17900 a.u.
CTAACGAAGGTTTTTCACGTGGTTTACAAGCCAAGT: 12700 a.u.
CATACCCAACCTTGTACAGTGGGTGAAGATATTTGT: 3610 a.u.
CTTTCCCGATCTTCCCACGTGTTTTTAGCACATTTG: 16200 a.u.
GTTCATGGAAGTGGTGGCCTGATCCATTTGCTGGTG: 3990 a.u.
TGCGCAACAACTTGTCACCACACTTTATGTCTAGAA: 4540 a.u.

Study 4 — technique: RNA Bind-n-Seq; molecule type: RNA; medium: in vitro; tested at: 365 nM; relative to: no-protein control; direction: higher = stronger binding; endpoint: RBNS enrichment (R)
Target: RNA binding protein fox-1 homolog 2, RRM domain, GST-SBP tag (RBFOX2, Homo sapiens, UniProt O43251-10, residues 100-194)
Notes: natural RNA segment, single round, ends assumed
Constant ends, left off below: GGGAGUUCUACAGUCCGACGAUC … UGGAAUUCUCGGGUGCCAA
Construct (chain): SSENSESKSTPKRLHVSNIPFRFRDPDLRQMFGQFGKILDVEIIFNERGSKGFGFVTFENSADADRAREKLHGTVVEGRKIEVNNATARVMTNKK
UGCCUUUGUUCCAGAAGGCAUCAGGCCUCUAAAGACUGUCUCACAAGUGAUGCCCUUCUGGAGACUGAGGGUGUGGCCUUCCUCCCAUGCUCUCUCUGGGUGAGUGUGGG: 0.345
GAGGGCUGGAGCAUGGCACGGCAUGGAUUAACACGGCAGAGGAACAAAGGUGUGCUCUGAGCUUCUUCAUAUUUCACCUUCACCCUCACCUGUGUUCUCUUCCCUCUCUC: 1.05
CGCCCAAGUGCCCUGUCCAGUGUCUGCUUGCCAUCCUGCCAGAACAGGCCCUCAAGCCCAAGAGCCAUCCCAGGCCUGUUCAGGCCUCAGCUAAGCCUCUCUUCAUCUGG: 0.403
UCCAGGUUGUGGGCUAUGGUAUUUGGGAUCCUGCAAAAGCACAUACACGUUUGUUCUAUGUUGUAAGUGUCACUCUGAAAGAAGUUUAACAGUAUCUGGUUUUUAAAAUA: 1.48
AACUCCCACCUUACAUGUCUCACACUAUCCCAUGGUUGGCAUUACACUCACUCCUGUUCCCUUAUUCUUCAUUCCCAGUAAUUCCCUACCAAAUGGUGGGGACCCUGAGC: 0.646
AUUUUUAAUCCCUGUGCCCAAUUUUGGAGUUGAGAGGGUUGUUGGUAAUAAAUGUAUGAUGUACACUAAAACAUCUGUUGUGUUUCAUGUCACUGUGUUAGGGAUGGGGA: 0.503
AAGCCCAUGCUGUUGUUGGUUUUUAAGGUUUCUUUCAAUAAUAGGCUAAGGAAAGACAUGUUUUUCUCUUUUAAAUCUCUGCAACUCCAAAGUAGACUCCUUCGAACGUA: 0.707
UUCUUGGAAACAAUGACAUUAAACAUAGAUUUGUGCCUUUGUGGCUCAGCCUGCUCUUUCAUAGUCAAGCUUGCUCAUUUAAUUUUUUUAUAAUCAUAUCCAGUAAACGG: 0.448
GUUAUUUGAAGCUGCAGAGCCACACCCUUGGCCUAACCCCUAGCAGACUGAGGCUCUCCCAUGCCUACCAGGGGGUGUUUUCCUUCCUAAACAGAACACUGGAUUCUUCC: 0.218
UUAGGGUGCUAUGGAAAUAAUGAAAAGAAACGGGGAUUUCAGAAGAAAAUUGUAACCAAAUUCAUACUUUGUAUAAUUUUUGAUAUCAUGAUCACAGGUGAUUCACACGU: 0.803
CUUCUAAAUUGAAGCUUGUUAAAAUAAUCACUGUAGUUAUGUGGUACACUAGUAUUUCUUAAAGCAGAGGUGAGUUGCGGAUAAGGUGGAUAAUAUGUGACUUUAGUCUA: 0.671
UGCUAGUCACAGCUGAAUAGCUUUGAGGAAGGAGGUGUGGCCCCCUCACACCCAGACACCCAGACACUUAACCACUCCUGCAAAGCAGAUAGAGCCUUCAGUUUGCCAUU: 0.225

Study 5 — technique: protein binding microarray; molecule type: double-stranded DNA, one strand shown; medium: in vitro; tested at: not given; relative to: not given; direction: higher = stronger binding; endpoint: E-score
Target: Histone acetyltransferase KAT6A, winged helix 2, GST fusion (KAT6A, Homo sapiens, UniProt Q92794, residues 85-181)
Notes: 8-mer, flanks averaged, mean of 2 arrays, mostly near background
Residues (chain): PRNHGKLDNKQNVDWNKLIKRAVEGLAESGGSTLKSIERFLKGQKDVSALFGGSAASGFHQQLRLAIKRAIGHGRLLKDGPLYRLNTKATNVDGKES
CGTTGCAA: -0.0153
GGAATGAA: 0.0338
AATTGCGG: 0.0927
AAATGTAC: -0.126
CGGCAGAC: 0.0637
ACAATAGG: -0.124
ACAGTCTG: -0.329
ACCACAGG: -0.056
CCCAGCAA: 0.136
TCGATTCA: 0.00253
CTGTCCCA: -0.0729
ACAGCAAA: 0.187
CCATTACC: -0.0668
CATCACGC: -0.107
AGTCCTAC: 0.0563
TGCCGTAA: -0.0377
ACGTAGAT: -0.163
CCACGTGA: -0.175
GGAGAAAC: 0.0822
AAAGTCAT: -0.141
GTGGTGTA: -0.00585
